# Results of several laboratories.
# Parts stem from different laboratories: compare values within a part only.

# Block 1 — technique: universal PBM; form: double-stranded DNA, one strand shown; matrix: in vitro; concentration: 600 nM; direction: higher = stronger binding
# Target: Sal-like protein 4, full length isoform A (SALL4, Homo sapiens, UniProt Q9UJQ4, residues 1-1053)
# UniProt Q9UJQ4, sequence (whole entry, looked up): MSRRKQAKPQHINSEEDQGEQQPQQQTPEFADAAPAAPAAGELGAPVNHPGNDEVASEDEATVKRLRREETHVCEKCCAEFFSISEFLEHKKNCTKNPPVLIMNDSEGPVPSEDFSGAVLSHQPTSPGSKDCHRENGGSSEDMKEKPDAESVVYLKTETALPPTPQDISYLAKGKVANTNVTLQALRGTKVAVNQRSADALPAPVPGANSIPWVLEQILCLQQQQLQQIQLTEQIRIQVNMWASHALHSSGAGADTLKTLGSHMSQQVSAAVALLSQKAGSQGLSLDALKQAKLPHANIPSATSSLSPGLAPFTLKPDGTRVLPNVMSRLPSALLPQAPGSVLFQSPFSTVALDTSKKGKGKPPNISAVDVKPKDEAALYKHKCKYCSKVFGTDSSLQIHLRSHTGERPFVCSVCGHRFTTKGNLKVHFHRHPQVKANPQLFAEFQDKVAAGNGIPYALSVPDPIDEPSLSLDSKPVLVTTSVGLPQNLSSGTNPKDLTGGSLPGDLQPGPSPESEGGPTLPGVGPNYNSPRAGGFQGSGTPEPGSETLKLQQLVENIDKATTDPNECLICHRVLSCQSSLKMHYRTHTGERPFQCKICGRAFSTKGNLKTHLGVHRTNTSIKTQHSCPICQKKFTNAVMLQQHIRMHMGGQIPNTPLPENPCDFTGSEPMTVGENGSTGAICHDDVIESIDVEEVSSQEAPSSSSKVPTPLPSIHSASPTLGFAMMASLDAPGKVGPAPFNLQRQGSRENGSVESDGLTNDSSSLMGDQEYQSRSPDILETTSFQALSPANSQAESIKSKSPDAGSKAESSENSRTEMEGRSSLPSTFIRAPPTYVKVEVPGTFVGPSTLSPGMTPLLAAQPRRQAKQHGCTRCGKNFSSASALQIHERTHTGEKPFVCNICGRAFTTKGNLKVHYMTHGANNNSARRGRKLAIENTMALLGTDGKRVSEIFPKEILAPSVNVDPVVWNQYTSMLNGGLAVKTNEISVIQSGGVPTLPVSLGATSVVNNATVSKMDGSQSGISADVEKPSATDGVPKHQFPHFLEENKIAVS
# Notes: 8-mer, flanks averaged, mean of replicates
Sequence,E-score
AATAGGCG,0.129
ATGCAATA,0.281
CACGGGTA,-0.183
CAACATAA,0.3
ACGCTAGA,-0.0341

# Block 2 — technique: aptamer microarray, sandwich; form: DNA with 2'F-ANA; matrix: in vitro; concentration: 200 nM; with: Cy3 exosite-II aptamer, 400 nM; direction: higher = stronger binding; sequence: GGTTGGTGTGGTTGG
# Target: Prothrombin, mature alpha-thrombin (F2, Homo sapiens, UniProt P00734)
# Notes: whole 15-mer aptamer, many near background
Modification,mean fluorescence intensity
2'F-ANA at 1 5 6 10 12 13 14 15,46.5 a.u.
2'F-ANA at 2 3 4 5 6 7 8 9,99.9 a.u.
2'F-ANA at 2 3 6 7 8 11 14 15,355 a.u.
2'F-ANA at 2 5 6 10 11 12 14,62.7 a.u.
2'F-ANA at 1 3 4 5 7 9 10 11 12 13,53.3 a.u.
2'F-ANA at 2 4 6 7 8 9 10 11 12 14,59.1 a.u.

# Block 3 — technique: protein-binding microarray; form: double-stranded DNA, one strand shown; matrix: in vitro; concentration: 2540 nM top; notes: 60-bp whole probe; with: salmon DNA 0.4 mg/ml; reference: random background probes; direction: higher = stronger binding; shared flanks, not repeated: GCCTAGCAC … GTCTTGATTCGCTTGACGCTGCTG
# Target: Interferon regulatory factor 3, full length, phosphomimetic (IRF3, Homo sapiens, UniProt Q14653, residues 1-427, S386D/S396D/S398D/S402D/T404D/S405D)
# Construct (chain): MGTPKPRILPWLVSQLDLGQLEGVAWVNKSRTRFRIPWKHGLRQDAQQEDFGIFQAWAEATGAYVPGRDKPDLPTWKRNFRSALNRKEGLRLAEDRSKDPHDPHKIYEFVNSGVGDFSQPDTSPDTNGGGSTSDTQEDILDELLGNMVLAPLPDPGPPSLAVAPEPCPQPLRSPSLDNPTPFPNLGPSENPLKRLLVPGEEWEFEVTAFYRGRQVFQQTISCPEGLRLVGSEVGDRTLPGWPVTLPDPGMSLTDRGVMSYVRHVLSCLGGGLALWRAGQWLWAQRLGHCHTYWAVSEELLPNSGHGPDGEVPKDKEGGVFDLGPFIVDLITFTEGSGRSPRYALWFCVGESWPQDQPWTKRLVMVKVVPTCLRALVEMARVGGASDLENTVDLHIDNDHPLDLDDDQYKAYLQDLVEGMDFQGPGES
Sequence,fitted relative affinity [z-score]
TCACCTTTCTGCCTCAGACTGTGCTAG,4.48
TTAGGACTGCTGCTGCTTTAGTGCTAG,-0.942
TGAGGTATCCTTTTCCTTTAGTGCTAG,7.92
GACGGTTTCGGTCTTGGGACGTGCTAG,8.26
TCACCTTGCTTTATGTGACTGTGCTAG,0.483
GACGATTTCGGGTATCAAGACGTGCTA,1.98

# Single results of other studies
Molecule,target,test,system,conditions,how to read,measurement,result
"PhoQ, residues 284 288 289 292 302 303 SLKLQV","PhoP, residues 12 14 15 18 19 NHFRA (Escherichia coli, UniProt P23836)","Sort-seq, refers to: YFP reporter",E. coli,"PhoQ-PhoP variant library, with: 10 µM Mg2+","reference: high Mg2+ state, higher = stronger signaling",fold induction,13.7

# For quick reference, copied from above (block 2):
Modification,mean fluorescence intensity
2'F-ANA at 2 5 6 10 11 12 14,62.7 a.u.
2'F-ANA at 2 3 4 5 6 7 8 9,99.9 a.u.
2'F-ANA at 2 4 6 7 8 9 10 11 12 14,59.1 a.u.
